{"data": "Measurements gathered from unrelated publications", "note": "Numbered parts are unrelated; each lists some results of a single study. Several values in a cell are separate wells, animals, samples, runs or records."}
{"data": "Study 1", "SMILES": "CCCCC[C@@H]1CC(=O)N[C@@H](C(C)C)C(=O)N[C@H](CCCNC(=N)N)C(=O)N[C@@H](C(C)C)C(=O)NCC(=O)N2CCC[C@H]2C(=O)N[C@@H](CC(C)C)C(=O)N[C@H](CCCNC(=N)N)C(=O)N[C@@H](CCC(=O)O)C(=O)N[C@H](Cc2ccc(O)cc2)C(=O)N[C@H](Cc2c[nH]c3ccccc23)C(=O)NCCCC(=O)O1", "species": "mouse, S. aureus infection", "route": "subcutaneous"}
{"conditions": "30 mg/kg, day 0", "survival": "100%"}
{"conditions": "30 mg/kg, day 1", "survival": "100%"}
{"conditions": "5 mg/kg, day 5", "survival": "40%"}
{"conditions": "10 mg/kg, day 0", "survival": "100%"}
{"conditions": "5 mg/kg, day 1", "survival": "40%"}
{"data": "Study 2", "Structure (SMILES)": "Cn1cc(-c2cccc(CN3CCC4(CC3)COc3c4ccc4c3CN([C@H]3CCC(=O)NC3=O)C4=O)c2)cn1", "species": "Crbn I391V mouse, MC-38 tumour"}
{"conditions": "30 mg/kg, day 1, with: anti-LAG3 antibody 10 mg/kg weekly", "body weight change": "0%"}
{"conditions": "oral, 30 mg/kg once daily, day 14", "body weight change": "-1.6% and -3.8% and 5.6% and 0% and 1.5%"}
{"conditions": "30 mg/kg, day 21, with: anti-LAG3 antibody 10 mg/kg weekly", "body weight change": "0.4% and 9.3% and -3.4% and -1.2% and -1% and 6.6% and -0.4%"}
{"conditions": "30 mg/kg, day 23, with: anti-LAG3 antibody 10 mg/kg weekly", "body weight change": "-3.1% and -2.5% and 2% and -1.6% and 0.8% and 4.5%"}
{"conditions": "30 mg/kg, day 48, with: anti-LAG3 antibody 10 mg/kg weekly", "body weight change": "11.9%"}
{"conditions": "30 mg/kg, day 13, with: anti-LAG3 antibody 10 mg/kg weekly", "body weight change": "10.1% and 0% and -2.5% and -1%"}
{"conditions": "oral, 30 mg/kg once daily, day 22", "body weight change": "0.9% and -3.6% and -1.4% and 5.8%"}
{"conditions": "oral, 30 mg/kg once daily, day 3", "body weight change": "-5% and -3.8% and 0% and -0.9% and 0.9%"}
{"conditions": "oral, daily, 30 mg/kg, day 1, anti-PD1 combination study", "body weight change": "0%"}
{"conditions": "30 mg/kg, day 41, with: anti-LAG3 antibody 10 mg/kg weekly", "body weight change": "8.2%"}
{"conditions": "oral, daily, 30 mg/kg, day 22, anti-PD1 combination study", "body weight change": "7.7% and -4.7% and 7.6% and -1%"}
{"data": "Study 3", "SMILES": "COc1cc(C(=O)OCCCN2CCCN(CCCOC(=O)c3cc(OC)c(OC)c(OCc4ccc([N+](=O)[O-])cc4)c3)CC2)cc(OC)c1OC", "route": "subcutaneous", "dose": "30 mg/kg"}
{"test system": "CD-1 mouse, male, spinal cord", "conditions": "12 h", "concentration [ng/mL]": 6.99}
{"test system": "CD-1 mice, male, spinal cord", "conditions": "4.5 h", "concentration [ng/mL]": 80}
{"test system": "CD-1 mice, male, spinal cord", "conditions": "0.5 h", "concentration [ng/mL]": 97.1}
{"test system": "CD-1 mice, male, brain", "conditions": "4.5 h", "concentration [ng/mL]": 155}
{"test system": "male CD-1 mouse, brain", "conditions": "12 h", "concentration [ng/mL]": 16.9}
{"data": "Study 4", "SMILES": "CCCN1C(=O)C(O)(C(=O)O)Oc2cc(F)ccc21 (stereo not drawn)", "read-out": "fresh weight", "route": "soil surface spray", "dose": "150 g ai/ha", "time": "21 days", "setting": "pre-emergence crop safety"}
{"organism": "Triticum aestivum", "inhibition": "10% and 12.4% and 11%"}
{"organism": "Oryza sativa", "inhibition": "30.8% and 29% and 28%"}
{"organism": "Zea mays", "inhibition": "8.1% and 7.5% and 9.3%"}
{"note": "For quick reference, copied from above (study 2):"}
{"conditions": "30 mg/kg, day 13, with: anti-LAG3 antibody 10 mg/kg weekly", "body weight change": "10.1% and 0% and -2.5% and -1%"}
{"conditions": "30 mg/kg, day 21, with: anti-LAG3 antibody 10 mg/kg weekly", "body weight change": "0.4% and 9.3% and -3.4% and -1.2% and -1% and 6.6% and -0.4%"}
